Assay results collected from several papers.
Each line is one published result; not all experiments were run side by side.
Organism: Escherichia coli

SMILES	test	system	setting	how to read	measurement	value
CC[C@H](C)[C@H](NC(=O)[C@@H]1CCCN1C(=O)[C@H](CCCNC(=N)N)NC(=O)[C@@H]1CCCN1C(=O)[C@@H]1CCCN1C(=O)[C@@H](NC(=O)[C@@H]1CCCN1C(=O)[C@H](CCCNC(=N)N)NC(=O)[C@@H]1CCCN1C(=O)[C@H](CC(C)C)NC(=O)[C@H](Cc1ccc(O)cc1)NC(=O)[C@H](CO)NC(=O)CNC(=O)[C@H](CCCCN)NC(=O)[C@H](CC(=O)O)NC(=O)[C@@H](NC(=O)[C@H](CCCCN)NC(=O)c1ccc2c(c1)C(=O)OC21c2ccc(O)cc2Oc2cc(O)ccc21)C(C)C)[C@@H](C)O)C(=O)N[C@@H](Cc1ccc(O)cc1)C(=O)N[C@@H](CC(N)=O)C(=O)N[C@@H](CCCNC(=N)N)C(=O)N[C@@H](CC(N)=O)C(N)=O		D22		relative to: Py	MIC ratio	64 to 512 fold
CC[C@H](C)[C@H](NC(=O)[C@H](CO)NC(=O)[C@H](CO)NC(=O)[C@H](Cc1ccccc1)NC(=O)CN)C(=O)N[C@@H](Cc1ccccc1)C(=O)N[C@@H](CCCNC(=N)N)C(=O)NCC(=O)N[C@H](C(=O)N[C@@H](C)C(=O)N[C@@H](CCCCN)C(=O)N[C@@H](Cc1ccccc1)C(=O)N[C@@H](C)C(=O)N[C@@H](CO)C(=O)N[C@@H](CCCCN)C(=O)NCC(=O)N[C@@H](CC(C)C)C(=O)NCC(=O)N[C@@H](CCCCN)C(=O)N[C@@H](CC(=O)O)C(=O)N[C@@H](CC(C)C)C(=O)N[C@@H](C)C(=O)N[C@@H](CCCNC(=N)N)C(N)=O)C(C)C		ATCC 8739	MIC		time to complete killing	90 min
CC[C@H](C)[C@H](NC(=O)[C@H](CCCCN)NC(=O)[C@H](CCCCN)NC(=O)[C@H](CC(C)C)NC(=O)[C@H](CCCCN)NC(=O)[C@H](CCC(=O)O)NC(=O)[C@H](CCCCN)NC(=O)[C@@H](NC(=O)[C@H](CCCCN)NC(=O)[C@H](CC(N)=O)NC(=O)[C@H](CCCNC(=N)N)NC(=O)[C@H](Cc1ccccc1)NC(=O)[C@H](CCCCN)NC(=O)[C@H](CCCNC(=N)N)NC(=O)[C@H](CC(C)C)NC(=O)[C@H](CCCNC(=N)N)NC(=O)[C@H](CCCCN)NC(=O)[C@H](CCCNC(=N)N)NC(=O)[C@@H](N)CC(C)C)[C@@H](C)CC)C(=O)NCC(=O)N[C@@H](CCC(N)=O)C(=O)N[C@@H](CCCCN)C(=O)N[C@H](C(=O)N[C@@H](CCC(N)=O)C(=O)NCC(=O)N[C@@H](Cc1ccccc1)C(=O)N[C@H](C(=O)N1CCC[C@H]1C(=O)N[C@@H](CCCCN)C(=O)N[C@@H](CC(C)C)C(=O)O)C(C)C)[C@@H](C)CC	inhibition zone	JM109			lethal concentration	1.5 µM
CCCCCCCCCCCCCCCC(=O)N[C@@H](CCCCN)C(=O)N[C@@H](CCCCN)C(=O)N[C@@H](CCCCN)C(=O)N[C@@H](CCCCN)C(N)=O		K12			MBC	64 µg/mL
CNC(=O)c1cccc(-c2ccc(O[C@H]3O[C@H](CO)[C@@H](O)[C@H](O)[C@@H]3O)c(C)c2)c1	biofilm formation, inhibitor	uropathogenic UTI89			IC50	160 nM
CC[C@H](C)[C@H](NC(=O)[C@H](CCCCN)NC(=O)[C@H](CCCCN)NC(=O)[C@H](CC(C)C)NC(=O)[C@H](CCCCN)NC(=O)[C@H](CCC(=O)O)NC(=O)[C@H](CCCCN)NC(=O)[C@@H](NC(=O)[C@H](CCCCN)NC(=O)[C@H](CC(N)=O)NC(=O)[C@H](CCCNC(=N)N)NC(=O)[C@H](Cc1ccccc1)NC(=O)[C@H](CCCCN)NC(=O)[C@H](CCCNC(=N)N)NC(=O)[C@H](CC(C)C)NC(=O)[C@H](CCCNC(=N)N)NC(=O)[C@H](CCCCN)NC(=O)[C@H](CCCNC(=N)N)NC(=O)[C@H](CC(C)C)NC(=O)CN)[C@@H](C)CC)C(=O)NCC(=O)N[C@@H](CCC(N)=O)C(=O)N[C@@H](CCCCN)C(=O)N[C@H](C(=O)N[C@@H](CCC(N)=O)C(=O)NCC(=O)N[C@@H](Cc1ccccc1)C(=O)N[C@H](C(=O)N1CCC[C@H]1C(=O)N[C@@H](CCCCN)C(=O)N[C@@H](CC(C)C)C(=O)N[C@@H](C)C(=O)N1CCC[C@H]1C(=O)N[C@@H](CCCNC(=N)N)C(=O)N[C@H](C(=O)N[C@@H](CC(=O)O)C(=O)N[C@@H](Cc1ccc(O)cc1)C(=O)O)[C@@H](C)O)C(C)C)[C@@H](C)CC	inhibition zone	D. J45b			lethal concentration	2.19 µM
Cc1ncc(/C=N/NC(=O)c2cc3c(s2)CCCC3)cn1		TolC	50 µM		growth inhibition	24%
CC[C@H](C)[C@H](NC(=O)[C@H](CCCNC(=N)N)NC(=O)[C@H](CCCCN)NC(=O)[C@H](CC(C)C)NC(=O)[C@H](CC(C)C)NC(=O)CN)C(=O)N[C@@H](CCCCN)C(=O)N[C@H](C(=O)N[C@@H](CC(C)C)C(=O)N[C@@H](CC(C)C)C(=O)NCCCC[C@H](NC(=O)[C@H](CC(C)C)NC(=O)[C@H](CC(C)C)NC(=O)[C@@H](NC(=O)[C@H](CCCCN)NC(=O)[C@@H](NC(=O)[C@H](CCCNC(=N)N)NC(=O)[C@H](CCCCN)NC(=O)[C@H](CC(C)C)NC(=O)[C@H](CC(C)C)NC(=O)CN)[C@@H](C)CC)[C@@H](C)O)C(N)=O)[C@@H](C)O	checkerboard	ATCC 25922	with: rifampicin		FIC index	0.25
CC(C)C[C@H](NC(=O)[C@H](CCCNC(=N)N)NC(=O)CNC(=O)CNC(=O)[C@@H](N)CCCNC(=N)N)C(=O)N[C@H]1CSSC[C@@H](C(=O)N[C@H](C(=O)NCC(=O)N[C@@H](CCCNC(=N)N)C(=O)O)C(C)C)NC(=O)[C@H](C(C)C)NC(=O)[C@@H]2CSSC[C@H](NC(=O)[C@H](Cc3ccc(O)cc3)NC1=O)C(=O)N[C@@H](CCCNC(=N)N)C(=O)N[C@@H](CCCNC(=N)N)C(=O)N[C@@H](CCCNC(=N)N)C(=O)N[C@@H](Cc1ccccc1)C(=O)N2	kill curve	W3110	8 µg/mL		time to near complete killing	≤ 30 min
CC[C@H](C)[C@H](NC(=O)[C@H](CO)NC(=O)[C@H](CO)NC(=O)[C@H](Cc1ccccc1)NC(=O)CN)C(=O)N[C@@H](Cc1ccccc1)C(=O)N[C@@H](CCCNC(=N)N)C(=O)NCC(=O)N[C@H](C(=O)N[C@@H](C)C(=O)N[C@@H](CCCCN)C(=O)N[C@@H](Cc1ccccc1)C(=O)N[C@@H](C)C(=O)N[C@@H](CO)C(=O)N[C@@H](CCCCN)C(=O)NCC(=O)N[C@@H](CC(C)C)C(=O)NCC(=O)N[C@@H](CCCCN)C(N)=O)C(C)C		ATCC 8739	pretreated trypsin 0.25 mg/mL		MBC	> 128 µM
O=C(O)[C@@H]1Cc2c([nH]c3ccccc23)[C@@H](c2ccc(F)cc2Cl)N1		BL21(DE3)	250 µM, 18 h		growth inhibition	0%
NCCCC[C@H](NC(=O)[C@H](CCCCN)NC(=O)[C@H](Cc1ccccc1)NC(=O)[C@@H]1CCCN1C(=O)[C@H](Cc1c[nH]c2ccccc12)NC(=O)[C@H](Cc1c[nH]c2ccccc12)NC(=O)[C@H](Cc1c[nH]c2ccccc12)NC(=O)[C@@H]1CCCN1C(=O)[C@H](Cc1ccccc1)NC(=O)[C@H](CCCCN)NC(=O)[C@@H](N)CCCCN)C(N)=O		ATCC 8937, RPMI medium	24 h, 37 °C		LC99.9	15 µM
C[C@]1(COC(=O)c2ccc(O)c(O)c2)[C@H](C(=O)O)N2C(=O)/C(=C/c3ccccn3)[C@H]2S1(=O)=O	broth microdilution	MG1655 expressing CTX-M-14	16 µg/mL, 20 h, 37 °C		MIC of ampicillin	4 µg/mL
CC[C@H](C)[C@H](NC(=O)[C@H](CCCCN)NC(=O)[C@H](CCCCN)NC(=O)[C@H](CC(C)C)NC(=O)[C@H](CCCCN)NC(=O)[C@H](CCC(=O)O)NC(=O)[C@H](CCCCN)NC(=O)[C@@H](NC(=O)[C@H](CCCCN)NC(=O)[C@H](CC(N)=O)NC(=O)[C@H](CCCNC(=N)N)NC(=O)[C@H](Cc1ccccc1)NC(=O)[C@H](CCCCN)NC(=O)[C@H](CCCNC(=N)N)NC(=O)[C@H](CC(C)C)NC(=O)[C@H](CCCNC(=N)N)NC(=O)[C@H](CCCCN)NC(=O)[C@H](CCCNC(=N)N)NC(=O)[C@H](CC(C)C)NC(=O)[C@@H](N)CC(C)C)[C@@H](C)CC)C(=O)NCC(=O)N[C@@H](CCC(N)=O)C(=O)N[C@@H](CCCCN)C(=O)N[C@H](C(=O)N[C@@H](CCC(N)=O)C(=O)NCC(=O)N[C@@H](Cc1ccccc1)C(=O)N[C@H](C(=O)N1CCC[C@H]1C(=O)N[C@@H](CCCCN)C(=O)N[C@@H](CC(C)C)C(=O)N[C@H](C(=O)N1CCC[C@H]1C(=O)N[C@@H](CCCNC(=N)N)C(=O)N[C@H](C(=O)N[C@@H](CCC(=O)O)C(=O)N[C@@H](CO)C(=O)O)[C@@H](C)O)C(C)C)C(C)C)[C@@H](C)CC	inhibition zone	CIP. J14b			lethal concentration	2.67 µM
CCCCCCCCCCCCCC(=O)N[C@@H](Cc1ccc2ccccc2c1)C(=O)N[C@@H](CCCCN)C(=O)N[C@@H](CCCCN)C(=O)N[C@@H](CCCCN)C(=O)N[C@@H](CCCCN)C(N)=O		K12			MBC	64 µg/mL
CCCC(=O)NCC(=O)N[C@@H](CC(C)C)C(=O)N[C@@H](CC(C)C)C(=O)N[C@@H](CCCCN)C(=O)N[C@@H](CCCNC(=N)N)C(=O)N[C@H](C(=O)N[C@@H](CCCCN)C(=O)N[C@H](C(=O)N[C@@H](CC(C)C)C(=O)N[C@@H](CC(C)C)C(=O)NCCCC[C@H](NC(=O)[C@H](CCCCNC(=O)[C@H](CC(C)C)NC(=O)[C@H](CC(C)C)NC(=O)[C@@H](NC(=O)[C@H](CCCCN)NC(=O)[C@@H](NC(=O)[C@H](CCCNC(=N)N)NC(=O)[C@H](CCCCN)NC(=O)[C@H](CC(C)C)NC(=O)[C@H](CC(C)C)NC(=O)CNC(=O)CCC)[C@@H](C)CC)[C@@H](C)O)NC(=O)[C@H](CC(C)C)NC(=O)[C@H](CC(C)C)NC(=O)[C@@H](NC(=O)[C@H](CCCCN)NC(=O)[C@@H](NC(=O)[C@H](CCCNC(=N)N)NC(=O)[C@H](CCCCN)NC(=O)[C@H](CC(C)C)NC(=O)[C@H](CC(C)C)NC(=O)CNC(=O)CCC)[C@@H](C)CC)[C@@H](C)O)C(N)=O)[C@@H](C)O)[C@@H](C)CC	checkerboard	ATCC 25922	with: rifampicin		FIC index	0.312

Excerpt of the above:
SMILES	test	system	setting	how to read	measurement	value
C[C@]1(COC(=O)c2ccc(O)c(O)c2)[C@H](C(=O)O)N2C(=O)/C(=C/c3ccccn3)[C@H]2S1(=O)=O	broth microdilution	MG1655 expressing CTX-M-14	16 µg/mL, 20 h, 37 °C		MIC of ampicillin	4 µg/mL
CCCCCCCCCCCCCC(=O)N[C@@H](Cc1ccc2ccccc2c1)C(=O)N[C@@H](CCCCN)C(=O)N[C@@H](CCCCN)C(=O)N[C@@H](CCCCN)C(=O)N[C@@H](CCCCN)C(N)=O		K12			MBC	64 µg/mL
